Assay results gathered from unrelated publications.
Each numbered part is a random draw from the data of one study; scales do not carry over between parts. Positions count from the first letter of the parent shown.

Set 1 — technique: RNA Bind-n-Seq; form: RNA; sample: in vitro; concentration: 365 nM; reference: no-protein control; direction: higher = stronger binding; quantity: RBNS enrichment (R)
Target: RNA binding protein fox-1 homolog 2, RRM domain, GST-SBP tag (RBFOX2, Homo sapiens, UniProt O43251-10, residues 100-194)
Setting: natural RNA segment, single round, ends assumed
Shared flanks, not repeated: GGGAGUUCUACAGUCCGACGAUC … UGGAAUUCUCGGGUGCCAA
Construct (chain): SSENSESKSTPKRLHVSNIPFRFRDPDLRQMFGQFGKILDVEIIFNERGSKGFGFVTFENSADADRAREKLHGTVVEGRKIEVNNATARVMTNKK
UGAUGUGACAUAAUAGAUGUGAAUGUUAAUCACUGCUUGACUAUGUUAAUAAAGUUGUUUAACUAUAGAUGUUGCACUCUGAUUUUUAAUGAAAGGAAAUGAGUUUUCUU: 0.784
UUUUCCCACCUGUGAAUAUGUAAAACAAAACCAUUAUCUUUGAGGGAGUUUUUAAUACCAAUGACAGAACAGAGAUUUGUGUGCUCAUCUUAAGAGCCAGAGCCAUAUAA: 0.501
AGGAGAGCAUCCAGAUCCCUGGGCAGAGGCUCUACAUUCUUGGCUUUAGAGGUGGUGGCAGCGGCAGCAGGUCAGAGCCACUUCUGGCGGUUUCCCUCCCCUUUUUAGUG: 0.183
CAAGUAUGGCAAAGCUUAUCCAAUUUUAUGCUUGGAGCAGUCAGUACAUACCAGUUUCUGAUGUUUCAGGCAGGAGUGGGGUAAAUAAGUGUGACCACUUAAAGCUGCUC: 0.252
AUUCUUGGAAAAGCAGCUCCAGUUGGUUUUUCAACUGUCAAACUUGAAUGUGUAAGUCCCCACAGAGCAUGGACAGUCGGUGCAGAGUUCCAAGGAAACAAUUAUUGCCU: 0.574

Set 2 — technique: aptamer microarray, sandwich; form: DNA with 2'F-ANA; sample: in vitro; concentration: 200 nM; with: Cy3 exosite-II aptamer, 400 nM; direction: higher = stronger binding; quantity: mean fluorescence intensity; strand: GGTTGGTGTGGTTGG
Target: Prothrombin, mature alpha-thrombin (F2, Homo sapiens, UniProt P00734)
Setting: whole 15-mer aptamer, many near background
2'F-ANA at 3 4 5 7 8 9 10 12 14 15: 59.6 a.u.
2'F-ANA at 2 9 10 11: 126 a.u.
2'F-ANA at 1 3 4 5 6 7 8 9 11 12 13 14 15: 50.3 a.u.
2'F-ANA at 2 5 6 10 14: 49.3 a.u.
2'F-ANA at 1 4 5 6 10 12 13: 46.6 a.u.
2'F-ANA at 8 11 12 13 15: 656 a.u.

Set 3 — target: CCNB2, cyclin fold, Cln2 fusion (human); technique: yeast growth competition, sequencing; sample: yeast; setting: weak parent motif; reference: not given; direction: higher = stronger binding; quantity: normalised enrichment score
Starting sequence: RBL1 docking peptide (human); GSAKRRLFGEDPP
GSANRRLFGEDPP [K4N]: -0.185
GSAKRRWFGEDPP [L7W]: 0.396
GSAKRRLFGEDTP [P12T]: 0.569
GSAKRRKFGEDPP [L7K]: 0.447

Further values, each from its own experiment
PhoQ, residues 284 288 289 292 302 303 SLKLQV — fold induction (PhoP, residues 12 14 15 18 19 NMSFL (Escherichia coli, UniProt P23836); Sort-seq, item: YFP reporter; E. coli; PhoQ-PhoP variant library, with: 10 µM Mg2+; reference: high Mg2+ state, higher = stronger signaling): 6.77

Excerpt of the above (set 1):
UGAUGUGACAUAAUAGAUGUGAAUGUUAAUCACUGCUUGACUAUGUUAAUAAAGUUGUUUAACUAUAGAUGUUGCACUCUGAUUUUUAAUGAAAGGAAAUGAGUUUUCUU: 0.784
AUUCUUGGAAAAGCAGCUCCAGUUGGUUUUUCAACUGUCAAACUUGAAUGUGUAAGUCCCCACAGAGCAUGGACAGUCGGUGCAGAGUUCCAAGGAAACAAUUAUUGCCU: 0.574
